Results collected from several papers.
Lines come from different studies, so protocols differ. Values joined by “and” are separate records of one study, mostly repeats; a detail may differ. ± gives the spread as reported.
Abhydrolase domain-containing protein 11: Abhydrolase domain-containing protein 11 (Rattus norvegicus, UniProt D3ZXK4)
UniProt A5GZW8, sequence (whole entry, looked up): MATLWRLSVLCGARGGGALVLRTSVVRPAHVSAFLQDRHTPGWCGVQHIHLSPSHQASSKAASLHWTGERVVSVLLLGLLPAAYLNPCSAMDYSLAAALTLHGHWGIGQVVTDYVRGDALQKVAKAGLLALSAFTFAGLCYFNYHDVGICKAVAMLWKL
UniProt D0VWV4, sequence (whole entry, looked up): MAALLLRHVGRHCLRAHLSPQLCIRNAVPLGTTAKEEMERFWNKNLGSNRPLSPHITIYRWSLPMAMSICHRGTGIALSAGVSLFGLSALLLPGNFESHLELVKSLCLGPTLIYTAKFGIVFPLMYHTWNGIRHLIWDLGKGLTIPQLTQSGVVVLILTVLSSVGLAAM
UniProt Q007T0, sequence (whole entry, looked up): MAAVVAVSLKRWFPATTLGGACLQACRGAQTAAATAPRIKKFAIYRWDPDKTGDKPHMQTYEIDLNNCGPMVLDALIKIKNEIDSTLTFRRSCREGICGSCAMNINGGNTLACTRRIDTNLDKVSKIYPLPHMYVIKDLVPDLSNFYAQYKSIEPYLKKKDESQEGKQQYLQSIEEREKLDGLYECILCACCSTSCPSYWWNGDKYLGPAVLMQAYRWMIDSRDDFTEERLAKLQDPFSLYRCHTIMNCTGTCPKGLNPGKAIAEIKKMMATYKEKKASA
UniProt P06276, sequence (whole entry, looked up): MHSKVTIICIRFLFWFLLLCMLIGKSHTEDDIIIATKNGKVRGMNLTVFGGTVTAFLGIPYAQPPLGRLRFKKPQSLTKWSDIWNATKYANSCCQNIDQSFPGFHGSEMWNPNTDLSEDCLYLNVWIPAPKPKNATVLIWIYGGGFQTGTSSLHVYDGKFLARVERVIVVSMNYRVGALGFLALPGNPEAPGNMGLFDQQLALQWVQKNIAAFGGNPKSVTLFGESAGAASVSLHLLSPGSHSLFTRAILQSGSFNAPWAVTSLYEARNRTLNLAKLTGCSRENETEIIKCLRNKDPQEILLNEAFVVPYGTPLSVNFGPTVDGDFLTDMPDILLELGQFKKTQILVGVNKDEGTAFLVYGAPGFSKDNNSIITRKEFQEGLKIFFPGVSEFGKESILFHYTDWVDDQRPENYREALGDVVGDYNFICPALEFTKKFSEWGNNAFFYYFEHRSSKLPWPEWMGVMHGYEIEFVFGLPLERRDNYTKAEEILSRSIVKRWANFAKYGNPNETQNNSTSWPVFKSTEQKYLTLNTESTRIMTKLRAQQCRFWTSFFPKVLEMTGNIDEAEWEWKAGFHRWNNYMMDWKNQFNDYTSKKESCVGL
UniProt Q86Z02, sequence (whole entry, looked up): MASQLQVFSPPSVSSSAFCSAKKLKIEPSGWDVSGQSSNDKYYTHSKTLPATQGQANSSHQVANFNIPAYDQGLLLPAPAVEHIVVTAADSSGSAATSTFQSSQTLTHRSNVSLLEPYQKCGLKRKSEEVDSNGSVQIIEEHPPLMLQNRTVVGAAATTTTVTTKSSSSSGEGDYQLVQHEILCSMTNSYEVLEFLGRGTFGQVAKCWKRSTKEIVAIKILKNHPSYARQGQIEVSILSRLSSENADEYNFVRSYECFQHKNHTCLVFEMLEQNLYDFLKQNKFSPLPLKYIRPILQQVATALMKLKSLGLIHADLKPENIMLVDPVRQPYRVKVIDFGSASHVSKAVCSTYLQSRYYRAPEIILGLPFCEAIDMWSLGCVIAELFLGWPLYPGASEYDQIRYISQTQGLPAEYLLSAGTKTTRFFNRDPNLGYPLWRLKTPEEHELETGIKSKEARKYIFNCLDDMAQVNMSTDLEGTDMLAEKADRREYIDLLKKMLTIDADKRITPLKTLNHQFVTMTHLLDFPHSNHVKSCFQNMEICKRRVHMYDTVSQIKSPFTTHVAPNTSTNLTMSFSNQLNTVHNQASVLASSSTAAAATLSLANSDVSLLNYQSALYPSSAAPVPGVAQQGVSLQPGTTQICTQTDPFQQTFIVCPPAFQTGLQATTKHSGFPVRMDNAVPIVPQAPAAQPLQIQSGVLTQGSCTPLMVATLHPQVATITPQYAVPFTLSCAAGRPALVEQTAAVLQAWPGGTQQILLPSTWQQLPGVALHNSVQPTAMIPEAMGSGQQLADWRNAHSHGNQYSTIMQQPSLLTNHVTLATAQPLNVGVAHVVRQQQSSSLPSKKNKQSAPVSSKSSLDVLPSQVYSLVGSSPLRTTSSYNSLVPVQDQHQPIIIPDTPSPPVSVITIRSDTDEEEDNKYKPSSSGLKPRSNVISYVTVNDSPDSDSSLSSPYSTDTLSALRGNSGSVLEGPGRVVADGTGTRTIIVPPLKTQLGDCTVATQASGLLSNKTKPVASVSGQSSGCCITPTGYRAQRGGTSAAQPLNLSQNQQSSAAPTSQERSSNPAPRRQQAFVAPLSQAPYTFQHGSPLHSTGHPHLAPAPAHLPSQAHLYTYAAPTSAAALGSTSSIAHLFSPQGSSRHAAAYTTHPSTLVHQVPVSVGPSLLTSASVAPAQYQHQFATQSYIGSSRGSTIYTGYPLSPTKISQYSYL
UniProt Q9FN92, sequence (whole entry, looked up): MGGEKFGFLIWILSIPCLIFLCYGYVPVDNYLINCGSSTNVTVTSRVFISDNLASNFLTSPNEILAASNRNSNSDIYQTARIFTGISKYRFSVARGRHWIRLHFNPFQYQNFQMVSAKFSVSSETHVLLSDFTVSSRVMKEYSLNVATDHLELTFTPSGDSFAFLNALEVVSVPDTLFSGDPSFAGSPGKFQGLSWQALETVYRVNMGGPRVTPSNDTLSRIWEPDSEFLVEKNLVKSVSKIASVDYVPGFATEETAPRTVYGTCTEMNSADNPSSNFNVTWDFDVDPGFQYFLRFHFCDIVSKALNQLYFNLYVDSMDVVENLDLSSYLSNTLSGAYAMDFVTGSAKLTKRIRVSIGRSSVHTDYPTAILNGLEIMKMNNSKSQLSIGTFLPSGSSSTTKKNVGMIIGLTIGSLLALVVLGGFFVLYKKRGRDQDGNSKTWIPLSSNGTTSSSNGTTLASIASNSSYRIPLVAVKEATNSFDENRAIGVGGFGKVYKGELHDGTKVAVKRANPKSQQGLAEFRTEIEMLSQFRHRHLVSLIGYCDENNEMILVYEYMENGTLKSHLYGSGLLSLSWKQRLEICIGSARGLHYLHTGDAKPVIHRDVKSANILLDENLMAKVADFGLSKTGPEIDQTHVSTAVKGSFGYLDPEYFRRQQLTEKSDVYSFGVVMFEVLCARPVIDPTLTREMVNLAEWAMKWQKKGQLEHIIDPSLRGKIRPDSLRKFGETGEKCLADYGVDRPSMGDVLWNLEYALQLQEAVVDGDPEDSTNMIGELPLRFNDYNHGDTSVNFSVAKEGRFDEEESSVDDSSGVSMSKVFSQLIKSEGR
UniProt Q14973, sequence (whole entry, looked up): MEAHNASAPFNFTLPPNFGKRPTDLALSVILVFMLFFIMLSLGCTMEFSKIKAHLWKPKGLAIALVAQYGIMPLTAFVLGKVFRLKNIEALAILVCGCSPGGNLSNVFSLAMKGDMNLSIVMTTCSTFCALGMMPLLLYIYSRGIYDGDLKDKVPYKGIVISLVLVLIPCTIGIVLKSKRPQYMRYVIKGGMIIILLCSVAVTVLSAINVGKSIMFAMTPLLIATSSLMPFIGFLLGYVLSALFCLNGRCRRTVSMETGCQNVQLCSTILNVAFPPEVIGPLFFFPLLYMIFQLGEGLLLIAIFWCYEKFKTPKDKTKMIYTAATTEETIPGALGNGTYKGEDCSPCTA
UniProt P81908, sequence (whole entry, looked up): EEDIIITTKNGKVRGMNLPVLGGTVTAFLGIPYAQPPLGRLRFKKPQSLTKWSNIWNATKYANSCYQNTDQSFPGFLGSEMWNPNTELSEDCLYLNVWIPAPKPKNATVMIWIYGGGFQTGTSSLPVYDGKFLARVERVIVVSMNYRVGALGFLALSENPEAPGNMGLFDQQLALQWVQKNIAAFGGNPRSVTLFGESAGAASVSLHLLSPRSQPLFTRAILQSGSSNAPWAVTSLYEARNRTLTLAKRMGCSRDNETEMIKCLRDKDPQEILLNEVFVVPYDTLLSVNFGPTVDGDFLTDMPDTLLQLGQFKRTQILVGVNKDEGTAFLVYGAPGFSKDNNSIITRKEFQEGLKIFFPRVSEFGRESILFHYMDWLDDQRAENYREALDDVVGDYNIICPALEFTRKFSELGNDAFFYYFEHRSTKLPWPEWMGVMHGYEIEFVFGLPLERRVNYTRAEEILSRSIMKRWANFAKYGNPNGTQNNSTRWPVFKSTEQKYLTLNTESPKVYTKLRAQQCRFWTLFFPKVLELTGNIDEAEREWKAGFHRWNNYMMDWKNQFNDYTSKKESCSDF
UniProt Q6GMN2, sequence (whole entry, looked up): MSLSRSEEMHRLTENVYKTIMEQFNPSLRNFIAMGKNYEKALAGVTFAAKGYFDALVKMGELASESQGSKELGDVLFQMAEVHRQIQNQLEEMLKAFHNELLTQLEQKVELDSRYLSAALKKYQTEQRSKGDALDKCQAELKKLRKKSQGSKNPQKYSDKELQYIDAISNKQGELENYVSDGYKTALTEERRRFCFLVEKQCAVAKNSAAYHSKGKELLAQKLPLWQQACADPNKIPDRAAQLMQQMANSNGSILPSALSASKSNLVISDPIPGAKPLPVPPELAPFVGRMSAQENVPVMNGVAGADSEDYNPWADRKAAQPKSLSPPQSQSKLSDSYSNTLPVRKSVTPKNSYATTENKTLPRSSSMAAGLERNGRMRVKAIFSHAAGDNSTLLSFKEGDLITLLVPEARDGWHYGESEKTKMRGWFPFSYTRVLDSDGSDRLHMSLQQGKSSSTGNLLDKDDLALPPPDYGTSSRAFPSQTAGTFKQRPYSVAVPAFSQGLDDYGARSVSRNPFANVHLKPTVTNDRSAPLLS
UniProt P23284, sequence (whole entry, looked up): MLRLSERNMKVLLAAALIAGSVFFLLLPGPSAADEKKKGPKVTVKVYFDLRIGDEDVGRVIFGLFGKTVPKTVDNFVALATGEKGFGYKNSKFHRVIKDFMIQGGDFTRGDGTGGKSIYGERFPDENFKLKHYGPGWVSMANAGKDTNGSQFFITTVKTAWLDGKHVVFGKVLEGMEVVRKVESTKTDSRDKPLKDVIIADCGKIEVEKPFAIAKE

SMILES | target or system | assay | test system | conditions | scale | quantity | value
Oc1ccc(-c2cccc(Cl)c2)cc1Cl | Androgen receptor (AR, Homo sapiens, UniProt P10275) | reporter gene, antagonist | – | 5 µM, together with: DHT 2 nM | reference: DHT 2 nM | maximum activity | 24%
Oc1noc2c1CCNC2 | GABA-A receptor; alpha-1/beta-2/gamma-2 (Rattus norvegicus, UniProt P18508+P62813+P63138) | membrane potential, agonist, QP-DHM fluorescence | HEK293 expressing GABAA | 10 µM | reference: 10 µM GABA, direction not given | agonist score | 0.35
O=C(O)C(F)(F)C(F)(F)C(F)(F)C(F)(F)C(F)(F)C(F)(F)C(F)(F)F | SLC10A1 (Homo sapiens, UniProt Q14973) | uptake, substrate, two-transporter equation fit | HEK293 cells stably expressing SLC10A1 | 1 min, 37 °C | – | Jmax | 3000 ± 1480 pmol/min/mg protein
O=C1CN(C(=O)CCn2ccnc2)CC(O)CN1CCc1ccccc1 (stereo not shown) | Cholinesterase (BCHE, Homo sapiens, UniProt P06276) | inhibitor | – | 1.0 µM | – | apparent Vmax | 0.28 ± 0.03 µM/min
COc1ccc2[nH]c3c(c2c1)CCN(C)CC3.Cl | Chrna7 (Rattus norvegicus, UniProt Q05941) | ion current, inhibitor, two-electrode voltage clamp | Xenopus laevis oocytes, rat | together with: 100 µM acetylcholine | – | Hill coefficient | 1.7 ± 0.2
CC(C)[N+](C)(CCOC(=O)C1c2ccccc2Oc2ccccc21)C(C)C | Cholinesterase (BCHE, Homo sapiens, UniProt P06276) | – | – | concentration not given, Triton | – | efficacy | -71 ± 7.05%
N#C[Se]Cc1cc(=O)oc2cc(O)ccc12 | CA12 (Homo sapiens, UniProt O43570) | stopped-flow CO2 hydration | – | – | reference: Ki CA I over Ki CA XII | selectivity ratio | > 1070
COc1ccc(N2C(=O)N(c3c(C)cccc3Cl)Cc3cnc(Nc4ccc(C5CCN(C)CC5)cc4OC)nc32)nc1 | ROCK1 (Homo sapiens, UniProt Q13464) | kinase activity | – | 0.5 µM | – | inhibition | 4%
Cc1cn([C@H]2C[C@H](O)[C@@H](COP(=O)(O)OP(=O)(O)OP(=O)(O)O)O2)c(=O)[nH]c1=O | Gag-Pol polyprotein, reverse transcriptase (gag-pol, Human immunodeficiency virus type 1 group M subtype B, UniProt P04585, K653A) | nucleotide misincorporation, steady-state kinetics | – | K66A RT, together with: matched template/primer, template T | – | kcat | 0.0362 ± 0.0203 s⁻¹
Cc1ccc(C(=O)N(CCCN)[C@@H](c2nc3cc(Cl)ccc3c(=O)n2Cc2ccccc2)C(C)C)cc1 | Kinesin-like protein KIF11, motor domain (KIF11, Homo sapiens, UniProt P52732, Y104C) | no effect on inhibition, inhibitor | – | Y104C vs wild type | – | resistance | no effect
CC(=O)O[C@H]1C[C@@H]2CC[C@@H]3[C@H](CC[C@@]4(C)[C@H]3C[C@H]([N+]3(C)CCCCC3)[C@@H]4OC(C)=O)[C@@]2(C)C[C@@H]1N1CCCCC1 | Cholinesterase (BCHE, Homo sapiens, UniProt P06276) | – | – | concentration not given, Triton | – | efficacy | -98.4 ± 12.6%
COc1cc(Nc2ncc(F)c(Nc3ccc4c(n3)NC(=O)C(C)(C)O4)n2)cc(OC)c1OC | LRRK2 (Homo sapiens, UniProt Q5S007) | KINOMEscan | – | 10 µM | – | inhibition | 97%
C#CCNCC(=O)O | putA (Sinorhizobium meliloti, UniProt F7X6I3) | covalent inactivator | – | 23 °C | – | KI | 21.6 ± 0.8 µM
CCCCCCCCCCCCc1ccc([C@H]2CC[C@H]([N+](C)(C)CCC)CC2)cc1.[I-] | SPHK2 (Homo sapiens, UniProt Q9NRA0) | inhibitor, radiometric flash-plate | cell lysate | together with: sphingosine 5 µM | – | Ki/Km ratio | 1.6
CN(C(=O)n1cnc(-c2ccc[n+]([O-])c2)c1)C1CCCCC1 | Abhydrolase domain-containing protein 11 | probe labelling, inhibitor, competitive ABPP with azido-FP probe, measured: Abhd11 | rat brain soluble fraction | 100 µM | – | inhibition | 37.9%
COc1ncccc1-c1cnn2ccc(N3CCN(C(=O)OC(C)C)CC3)nc12 | Tyrosine-protein kinase ABL1, non-phosphorylated (ABL1, Homo sapiens, UniProt P00519) | KINOMEscan | – | 1 µM | – | remaining binding | 67%
Nc1ncnc2c1ncn2[C@@H]1O[C@H](COP(=O)(O)OP(=O)(O)O)[C@@H](O)[C@H]1O | Cell cycle histidine kinase CckA, G318A; cytoplasmic region (Caulobacter vibrioides, UniProt Q9X688, G318A) | binding, ITC | – | 25 °C, together with: without c-di-GMP | – | -TΔS | -4.5 kcal/mol
Cc1nn(C)cc1-c1nc2c(N3CCN(Cc4ccc(Cl)cc4)CC3)c(Cl)cnc2[nH]1 | Tyrosine-protein kinase ABL1, non-phosphorylated (ABL1, Homo sapiens, UniProt P00519, Q252H) | KINOMEscan | – | 1 µM | reference: DMSO control | remaining binding | 100%
C[C@H]1CN(c2n[nH]c3nc(N[C@H]4CC[C@H](NS(=O)(=O)CCC(F)(F)F)CC4)ncc23)CCO1 | DDR1 (Homo sapiens, UniProt Q08345) | inhibitor, Kinobeads competition profiling | – | 0.16 µM | reference: vehicle | relative abundance | 1.08
CC(=O)c1cnc2ccc(-c3cc(Cl)c(O)c(Cl)c3)nc2c1N[C@H]1CC[C@H](CN(C)C)CC1 | Probable receptor-like protein kinase At5g59700 (Arabidopsis thaliana, UniProt Q9FN92) | binding, SPR | – | concentration not given | reference: FER | fold change of KD | 48.5

SMILES | target or system | assay | test system | conditions | scale | quantity | value
CC[C@H](C)[C@H](NC(=O)[C@H](Cc1ccccc1)NC(=O)[C@H](CCC(=O)O)NC(=O)[C@H](CCCNC(=N)N)NC(=O)[C@H](C)NC(=O)[C@H](C)NC(=O)[C@H](CCC(N)=O)NC(=O)[C@H](CCC(=O)O)NC(=O)[C@H](CCC(=O)O)NC(=O)[C@H](CC(C)C)NC(=O)[C@H](Cc1ccc(O)cc1)NC(=O)[C@H](CO)NC(=O)[C@H](CO)NC(=O)[C@@H](NC(=O)[C@H](CC(=O)O)NC(=O)[C@H](CO)NC(=O)[C@@H](NC(=O)[C@H](Cc1ccccc1)NC(=O)[C@@H](NC(=O)CNC(=O)[C@H](CCC(=O)O)NC(=O)[C@H](C)NC(=O)CCc1c[nH]cn1)[C@@H](C)O)[C@@H](C)O)C(C)C)C(=O)N[C@@H](C)C(=O)N[C@@H](Cc1c[nH]c2ccccc12)C(=O)N[C@@H](CC(C)C)C(=O)N[C@H](C(=O)N[C@@H](CCCNC(=N)N)C(=O)NCC(=O)N[C@@H](CCCNC(=N)N)C(=O)N[C@@H](CCCCNC(=O)COCCOCCNC(=O)COCCOCCNC(=O)CC[C@H](NC(=O)CCCCCCCCCCCCCCCCC(=O)O)C(=O)O)C(=O)NCC(=O)NCC(=O)N[C@@H](CO)C(=O)N[C@@H](CCCCNc1c(NCCCCCN(O)C(=O)CCC(=O)NCCCCCN(O)C(=O)CCC(=O)NCCCCCN(O)C(C)=O)c(=O)c1=O)C(=O)O)C(C)C [zirconium-89 labelled] | – | – | rat, duodenum | iv, 3 nmol/kg, 168 h, ex vivo | – | tissue uptake | 0.15 %ID/g
Cc1[nH]c(C)c(S(=O)(=O)Nc2ccc(S(=O)(=O)F)c(F)c2)c1C(=O)N1CCC(F)(F)C1 | DRD3 (Homo sapiens, UniProt P35462) | β-arrestin recruitment, agonist, PathHunter | – | – | reference: dopamine | Imax | 99 ± 2%
COc1cc2nccc(Oc3ccc(NC(=O)c4cc5c(n(-c6ccccc6)c4=O)CCCC5=O)nc3)c2cc1OC | MERTK (Homo sapiens, UniProt Q12866) | cell viability, CellTiter-Glo | Ba/F3 expressing recombinant kinase | – | reference: MERTK IC50 over AXL IC50 | selectivity ratio | 1
CC(C)NC[C@@H](C(=O)N1CCN(c2ncnc3c2[C@H](C)C[C@H]3Cl)CC1)c1ccc(Cl)cc1 | AKT1 (Homo sapiens, UniProt P31749) | inhibitor, optical reporter | mouse AAV-transduced, brain striatum | oral, 100 mg/kg | – | time to peak response | 4 h
C=C(CN(C(=O)c1c(C(F)F)nn(C)c1F)C1CC1)c1ccc(Cl)cc1Cl | SDHD/SDHC/SDHB (Sus scrofa, UniProt A5GZW8+D0VWV4+Q007T0) | enzyme activity, inhibitor, DCIP reduction | pig | 0.2 µM, together with: DCIP 120 µM | – | reaction velocity | 0.0214 µM/s and 0.0194 µM/s and 0.0195 µM/s
C[C@H](CCC(=O)O)[C@H]1CC[C@H]2[C@@H]3CC[C@@H]4C[C@H](O)CC[C@]4(C)[C@H]3CC[C@]12C | MerR family transcriptional regulator (Clostridioides difficile, UniProt Q181I6) | differential scanning fluorimetry | – | 63 µM | decrease | delta Tm | ~5 °C
CC1(C)S[C@@H]2[C@H](NC(=O)Cc3ccccc3)C(=O)N2[C@H]1C(=O)O | Penicillin-binding protein 2B (Streptococcus pneumoniae, UniProt P0A3M6) | inhibitor | – | – | – | kinact/KI | 11000 ± 2300 M⁻¹ s⁻¹
O=C(Nc1cnccc1Cl)N1CCN(Cc2ccc3c(c2)OC(F)(F)O3)CC1 | Abhydrolase domain-containing protein 11 | probe labelling, inhibitor, competitive ABPP with azido-FP probe, measured: Abhd11 | rat brain soluble fraction | 1 µM | – | inhibition | 7.9%
Nc1cnn(-c2ccccc2)c(=O)c1Cl | PPARG (Homo sapiens, UniProt P37231) | reporter gene, agonist, β-lactamase reporter | HEK293-H cells | freely dissolved concentration | – | EC10 | 28 µM
CC1(C)C(C=C(Cl)Cl)C1C(=O)OCc1cccc(Oc2ccccc2)c1 (stereo not shown) | uncharacterized protein (Anopheles coluzzii, UniProt A0A6E8VQK1) | enzyme activity, inhibitor | Sf9 cell homogenate | 23.26 µM, 0.1667 h, together with: α-naphthyl acetate substrate | reference: no inhibitor | remaining activity | 97.8%
O=C(Nc1cccnn1)N1CCC(=Cc2cccc(Oc3ccc(C(F)(F)F)cn3)c2)CC1 | BAR/IMD domain-containing adapter protein 2 (Baiap2, Rattus norvegicus, UniProt Q6GMN2) | competitive ABPP with azido-FP probe, measured: BAIAP2 | rat brain membrane fraction | 0.1 µM, unit not given | reference: DMSO | probe labelling | -2
COc1cc(N)c(Cl)cc1C(=O)NC1CN2CCC1CC2 (stereo not shown) | Adhesion G protein-coupled receptor D2 (ADGRD2, Homo sapiens, UniProt Q7Z7M1) | β-arrestin recruitment, TANGO luminescence, measured: GPR144 | – | concentration not given | reference: basal luminescence | log2 fold change | 0.296
CCN(C)C(=O)Oc1ccc(CCC(=O)N2CCN(Cc3ccccc3)CC2)cc1 | Cholinesterase (BCHE, Equus caballus, UniProt P81908) | Ellman | equine serum BuChE | – | reference: AChE IC50 over BuChE IC50 | selectivity ratio | 0.3
C[N+]1(CCF)[C@@H]2CC[C@H]1C[C@@H](OC(=O)C(O)(c1ccccc1)c1ccccc1)C2 (stereo partly shown) | Cholinesterase (BCHE, Homo sapiens, UniProt P06276) | – | – | concentration not given, Triton | – | efficacy | -90 ± 11.7%
O=C(c1ccc(Cl)cc1)N1CCN2C(=O)N(OC(=O)N3CCOc4ccccc43)C(=O)C2C1 (stereo not shown) | Peptidyl-prolyl cis-trans isomerase B (Homo sapiens, UniProt P23284) | MS-based ABPP | SW-620 conditioned medium | 10 µM, 1 h, 37 °C, mean protein ratio | reference: compound over DMSO | probe labelling ratio | 1.45
CN1CCN(c2cc(-c3ccncc3)c(-c3ccc4ccccc4c3)nn2)CC1 | DRD2 (Homo sapiens, UniProt P14416) | agonist, FLIPR | – | 12.5 µM | – | activation | -1.1%
CC1(C)CC(NC(=O)C(=O)Nc2ccc(Cl)cc2)CC(C)(C)N1 | Envelope glycoprotein gp160, gp120 (env, Human immunodeficiency virus type 1 group M subtype B, UniProt P35961) | urea denaturation, Trp fluorescence | PBS | 50 µM, pH 7.5 | – | binding free energy | -7.2 kcal/mol
[2H]c1c([2H])c([C@]2([2H])CCCN2C(=O)C(C)(C)Oc2ccc3cn[nH]c3c2)c([2H])c([2H])c1C([2H])([2H])[2H] | HIPK1 (Homo sapiens, UniProt Q86Z02) | KINOMEscan | – | 1 µM | reference: DMSO control | remaining binding | 86%
O=C(O)Cc1c[nH]cn1 | SLC6A6 (Homo sapiens, UniProt P31641, Y138A) | binding, microscale thermophoresis | – | 35.1 nM, fitted curve | higher = more binding | fraction bound | 0.000203
C[C@@H](O)[C@@H](CO)NC(=O)[C@@H](CCCNC(=N)N)NC(=O)[C@@H]1CCCN1C(=O)[C@@H]1CSSC[C@H](NC(=O)[C@H](Cc2ccccc2)NC(=O)CN2CCN(CC(=O)O)CCN(CC(=O)O)CCN(CC(=O)O)CC2)C(=O)N[C@@H](Cc2ccc(O)cc2)C(=O)N[C@@H](Cc2ccccc2)C(=O)N[C@@H](CCC(N)=O)C(=O)N[C@@H](CC(N)=O)C(=O)N1 [gallium-68 labelled] | – | – | Wistar rat, healthy, urinary bladder | intravenous, 8 MBq, 60 min | – | tissue uptake | 2.03 %ID/g

Some of these lines once more:
SMILES | target or system | assay | test system | conditions | scale | quantity | value
CC1(C)S[C@@H]2[C@H](NC(=O)Cc3ccccc3)C(=O)N2[C@H]1C(=O)O | Penicillin-binding protein 2B (Streptococcus pneumoniae, UniProt P0A3M6) | inhibitor | – | – | – | kinact/KI | 11000 ± 2300 M⁻¹ s⁻¹
COc1ccc(N2C(=O)N(c3c(C)cccc3Cl)Cc3cnc(Nc4ccc(C5CCN(C)CC5)cc4OC)nc32)nc1 | ROCK1 (Homo sapiens, UniProt Q13464) | kinase activity | – | 0.5 µM | – | inhibition | 4%
